Assay results gathered from unrelated publications.
Each line is one published result; not all experiments were run side by side.

| SMILES | assay | system | conditions | quantity | value |
| --- | --- | --- | --- | --- | --- |
| C[C@]1(O)C[C@@](N)(c2ccc(-c3nc4n(c3-c3ccccc3)COc3ccncc3-4)cc2)C1 |  | human, advanced or metastatic solid tumours | intermittent, dose escalation total, any grade | patients with Hyperglycemia TEAE | 42.9% |
| COc1ncnn2ccc(-c3cnc4nc(C)n(Cc5nnc([C@@H](C)F)o5)c4c3)c12 |  | human | oral, dose not given, grade 3 | patients with hyponatremia | 0% |
| O=C1Nc2cc3[nH]nc(-c4ccncc4)c3cc2CN1Cc1ccccc1 | CTCAE v4.03 | human, relapsed or refractory advanced solid tumours | intravenous, 1.8 mg/kg, pooled schedules | patients with vomiting | 100% |
| COc1ccc(-c2c(-c3ccc(C#N)c(F)c3)nc(N3CCC(N)CC3)n(C)c2=O)cc1F | refers to: pulmonary hemorrhage | human patients | oral, 60 mg, dose expansion | patients with serious TEAE | 5% |
| CN(C)C(=O)c1cc2cnc(Nc3ccc(N4CCNCC4)cn3)nc2n1C1CCCC1 | refers to: Reproductive toxicity, AESI | human, HR+/HER2− advanced breast cancer | oral, dose not given, grade 4, CTCAE v4.03 | patients with adverse event | 0% |
| C[C@@H]1OC(=O)NN=C1c1ccc(-c2ccc(F)cc2)c(C(F)(F)F)c1 | phase I trial, refers to: Presyncope worst grade 2 | human patients | 5 mg loading then 0.25 mg daily | patients with adverse event | 0% |
| Cc1cn([C@H]2O[C@@H](CO[P@@](=O)(N[C@@H](C)C(=O)OC(C)C)Oc3ccccc3)[C@H](O)[C@H]2F)c(=O)[nH]c1=O | refers to: Nausea | human | 25 mg | patients with TEAE | 0% |
| C=CC(=O)Nc1cc(Nc2nccc(Nc3cc(Cl)c(F)cc3C(C)(C)O)n2)c(OC)cc1N1CC[C@@H](N(C)C)C1 |  | human patients | oral, 200 mg, treatment-emergent adverse events | patients with decreased appetite | 12.5% |
| Cn1cncc1-c1c(F)cncc1NC(=O)c1c(N)nn2cc(F)cnc12 |  | human patients | oral, 220 mg once daily, 2 weeks on 1 week off | patients grade ≥3 Platelet count decrease | 17% |

Excerpt of the above:
| SMILES | assay | system | conditions | quantity | value |
| --- | --- | --- | --- | --- | --- |
| COc1ccc(-c2c(-c3ccc(C#N)c(F)c3)nc(N3CCC(N)CC3)n(C)c2=O)cc1F | refers to: pulmonary hemorrhage | human patients | oral, 60 mg, dose expansion | patients with serious TEAE | 5% |
